{"data": "Measurements of several laboratories", "organism": "Plasmodium falciparum", "note": "Protocols differ between the studies behind these lines. Numbers after ± are the reported error."}
{"Compound": "COC1=C(OC)/C(=C/c2[nH]c(Cc3ccc(OC(F)(F)F)cc3)cc2Cc2ccc(OC(F)(F)F)cc2)N=C1c1ccc[nH]1", "test": "parasite growth, SYBR Green fluorescence", "system": "Dd2 (multidrug-resistant), asexual blood stage", "setting": "72 h", "endpoint": "IC50", "value": "62.9 nM"}
{"Compound": "COCC(=O)N1CCC[C@H](C(=O)NCc2nc(-c3ccc(OC)cc3)cs2)C1", "test": "SYBR Green growth", "system": "asexual blood-stage parasites, 3D7", "setting": "72 h", "endpoint": "EC50", "value": "31 ± 5 nM"}
{"Compound": "CCN(CC)CCCC(C)Nc1ccnc2cc(Cl)ccc12 (centres unmarked)", "test": "parasite reduction ratio", "system": "3D7 ring stage", "setting": "10-fold IC50", "endpoint": "parasite clearance time", "value": "96 h"}
{"Compound": "CCNC(=O)N1CCC[C@H](C(=O)NCc2nc(-c3ccccc3)cs2)C1", "test": "SYBR Green growth", "system": "asexual blood-stage parasites, 3D7", "setting": "72 h", "endpoint": "EC50", "value": "> 5000 nM"}
{"Compound": "COC1=C(OC)/C(=C/c2[nH]c(Cc3ccc(Cl)cc3)cc2Cc2ccc(Cl)cc2)N=C1c1ccc[nH]1", "test": "parasite growth, SYBR Green fluorescence", "system": "Dd2 (multidrug-resistant), asexual blood stage", "setting": "72 h", "endpoint": "IC50", "value": "> 2500 nM"}
{"Compound": "Cl.N=C(CC(O)c1cc2c(F)cc(F)cc2c2cc(C(F)(F)F)ccc12)Nc1ccc(F)c(F)c1 (centres unmarked)", "test": "parasite reduction ratio", "system": "3D7 ring stage", "setting": "10-fold IC50", "endpoint": "parasite clearance time", "value": "≤ 72 h"}
{"Compound": "Cc1cc(Nc2ccc(S(F)(F)(F)(F)F)cc2)n2nc(C(C)(F)F)nc2n1", "test": "microscopy", "system": "P. falciparum malaria patients", "setting": "oral, 400 mg", "endpoint": "PC50 parasite clearance time median", "value": "14.6 h"}
{"Compound": "CC1=C(Cc2cn(CCOS(=O)(=O)c3ccc(C)cc3)nn2)C(=O)c2ccccc2C1=O", "system": "NF54", "how to read": "baseline: L6 CC50 over IC50", "endpoint": "selectivity index", "value": 57.7}
{"Compound": "COCC(=O)N1CCC[C@H](C(=O)NCc2nc(-c3ccccc3F)cs2)C1", "test": "SYBR Green growth", "system": "asexual blood-stage parasites, 3D7", "setting": "72 h", "endpoint": "EC50", "value": "200 ± 25 nM"}
{"Compound": "Cn1cc(-c2cnc3[nH]cc(-c4cn(Cc5cccc(F)c5F)nn4)c3c2)cn1", "test": "LDH readout", "system": "3D7 Hyp1-Nluc", "setting": "2 µM, 72 h", "how to read": "baseline: DMSO", "endpoint": "parasite growth", "value": "12.4%"}
{"Compound": "O=C(CCCCCONC(=O)c1nc(-c2ccccn2)cs1)NO", "system": "3D7", "how to read": "baseline: NFF cells over P. falciparum", "endpoint": "selectivity ratio", "value": 5}
{"Compound": "CNS(=O)(=O)c1ccccc1Nc1nc(Nc2ccc(N3CCOCC3)cc2OC)ncc1Br", "test": "LDH readout", "system": "3D7 Hyp1-Nluc", "setting": "20 µM, 72 h", "how to read": "baseline: DMSO", "endpoint": "parasite growth", "value": "1.84%"}
{"Compound": "CCC1=C(CC)/C(=C/c2cc(-c3ccc(OC(F)(F)F)cc3)c(C)[nH]2)N=C1c1ccc[nH]1", "test": "parasite growth, SYBR Green fluorescence", "system": "Dd2 (multidrug-resistant), asexual blood stage", "setting": "72 h", "endpoint": "IC50", "value": "> 2500 nM"}
{"Compound": "Cc1nnc(-c2ccc3ccn(CC(=O)Nc4ccccc4Cl)c3c2)o1", "test": "luminescence", "system": "3D7 Hyp1-Nluc, infected erythrocytes", "setting": "concentration not given, 8 h, 10 × EC50", "how to read": "baseline: chloroquine", "endpoint": "RBC lysis fold", "value": "1.6 fold"}
{"Compound": "O=C(NCc1nc(-c2ccc(C(F)(F)F)cc2)cs1)[C@H]1CCCN(C(=O)COCCN2CCCCC2)C1", "test": "SYBR Green growth", "system": "asexual blood-stage parasites, 3D7", "setting": "72 h", "endpoint": "EC50", "value": "18 ± 5.3 nM"}
{"Compound": "COc1cc(C(=O)N(C)C)ccc1-c1cc2nccc(-c3ccc4ccncc4c3)c2o1", "test": "schizont egress, Nluc release", "system": "Hyp1-Nluc", "setting": "10 x growth EC50, 4 h", "endpoint": "inhibition", "value": "79.3%"}
{"Compound": "Cn1nc2c(=O)n(C3CC3)ncc2c1[C@](N)(c1ccc(C(F)(F)F)c(Cl)c1)C1CC1", "test": "parasite reduction ratio", "system": "3D7", "endpoint": "time to kill 99.9%", "value": "75 h"}
{"Compound": "COC1=C(OC)/C(=C/c2cc(-c3ccc(OC(F)(F)F)cc3)c(C)[nH]2)N=C1c1ccc[nH]1", "test": "parasite growth, SYBR Green fluorescence", "system": "Dd2 (multidrug-resistant), asexual blood stage", "setting": "72 h", "endpoint": "IC50", "value": "510 nM"}
{"Compound": "COc1ccc(CNc2nc(-c3ccc(C(=O)O)nc3)nc3sc4c(c23)CCCC4)cc1Cl", "test": "LDH readout", "system": "3D7 Hyp1-Nluc", "setting": "20 µM, 72 h", "how to read": "baseline: DMSO", "endpoint": "parasite growth", "value": "0.483%"}
{"Compound": "CC(C)COCC(=O)N1CCC[C@H](C(=O)NCc2nc(-c3ccccc3)cs2)C1", "test": "SYBR Green growth", "system": "asexual blood-stage parasites, 3D7", "setting": "72 h", "endpoint": "EC50", "value": "740 ± 150 nM"}
{"Compound": "CCc1nc(N)nc(N)c1-c1ccc(Cl)cc1", "test": "parasite reduction ratio", "system": "3D7", "setting": "concentration not given, linear phase after lag", "endpoint": "killing curve slope", "value": -0.072}
{"Compound": "CCN1CCN(Cc2ccc(Nc3nc4ccc(Oc5ccnc(NC(=O)C6CCN(C)CC6)c5)cc4n3C)cc2C(F)(F)F)CC1", "system": "Cambodian artemisinin-resistant isolates", "setting": "10 × EC50, 6 h", "endpoint": "ring-stage survival", "value": "active"}
{"Compound": "COCC(=O)NCCC(=O)NCc1nc(-c2ccccc2)cs1", "test": "SYBR Green growth", "system": "asexual blood-stage parasites, 3D7", "setting": "72 h", "endpoint": "EC50", "value": "> 5000 nM"}
{"Compound": "N=C(N)NCCCCC(=O)Nc1cc(C(F)(F)F)cc(NC(=O)c2cc(C(=O)Nc3cc(C(F)(F)F)cc(NC(=O)CCCCNC(=N)N)c3O[C@@H]3CCNC3)ncn2)c1O[C@@H]1CCNC1", "test": "erythrocyte invasion", "setting": "7.78 µM", "endpoint": "inhibition", "value": "100%"}
{"Compound": "COCC(=O)N1CCC[C@H](C(=O)NCc2nc(-c3ccccc3OC)cs2)C1", "test": "SYBR Green growth", "system": "asexual blood-stage parasites, 3D7", "setting": "72 h", "endpoint": "EC50", "value": "> 5000 nM"}
{"Compound": "CCC[C@@H]1C[C@@H](C(=O)N[C@@H]([C@H]2O[C@H](SC)[C@H](O)[C@@H](O)[C@H]2O)[C@H](C)Cl)N(C)C1", "test": "growth", "system": "3D7", "setting": "96 h, added: 200 µM IPP", "how to read": "baseline: with IPP over without IPP", "endpoint": "IC50 ratio", "value": "> 140"}
{"Compound": "CC(C)(C)NC(=O)[C@@H]1CN(Cc2cnc3occc3c2)CCN1C[C@@H](O)C[C@@H](Cc1ccccc1)C(=O)N[C@H]1c2ccccc2C[C@H]1O", "test": "erythrocyte invasion", "setting": "9.22 µM", "endpoint": "inhibition", "value": "50%"}
{"Compound": "O=C(CCCCCONC(=O)c1nc(-c2cccnc2)cs1)NO", "system": "3D7", "how to read": "baseline: NFF cells over P. falciparum", "endpoint": "selectivity ratio", "value": 66}
{"Compound": "COc1cc(OC)c(CCNC(=O)c2cn3cc(-c4cc(OCC(=O)O)ccc4OC)nc3s2)c(OC)c1", "test": "nanoluciferase readout", "system": "3D7 Hyp1-Nluc", "setting": "2 µM, 72 h", "how to read": "baseline: DMSO", "endpoint": "parasite growth", "value": "48.7%"}
{"Compound": "Cn1nc2c(=O)n(C3CC3)cnc2c1[C@](O)(c1cnc(C(F)(F)F)c(Cl)c1)C(F)(F)F", "test": "parasite reduction ratio", "system": "3D7", "endpoint": "time to kill 99.9%", "value": "72 h"}
{"Compound": "Cc1[nH]c(/C=C2\\N=C(c3ccc[nH]3)C=C2OC(C)C)cc1Cc1ccc(Cl)cc1", "test": "parasite growth, SYBR Green fluorescence", "system": "Dd2 (multidrug-resistant), asexual blood stage", "setting": "72 h", "endpoint": "IC50", "value": "7.11 nM"}
{"Compound": "C[C@H]1Cc2c([nH]c3cc(Cl)c(F)cc23)[C@@]2(N1)C(=O)Nc1ccc(Cl)cc12", "test": "luminescence", "system": "red blood cells, 3D7 Hyp1-Nluc", "setting": "10 × EC50, 8 h", "how to read": "baseline: DMSO", "endpoint": "fold lysis", "value": "~5 fold"}
{"Compound": "COCC(=O)N1CCCN(C(=O)NCc2nc(-c3ccccc3)cs2)C1", "test": "SYBR Green growth", "system": "asexual blood-stage parasites, 3D7", "setting": "72 h", "endpoint": "EC50", "value": "> 5000 nM"}
{"Compound": "O=C(Nc1ccc(CNc2ncnc3ccccc23)cc1)c1ccc(Cl)c(F)c1", "test": "invasion and early ring development", "system": "Hyp1-Nluc", "setting": "10 x growth EC50, 4 h", "endpoint": "inhibition", "value": "108%"}
{"Compound": "CC1=C(Cc2cn(Cc3ccccc3)nn2)C(=O)c2ccccc2C1=O", "system": "NF54", "how to read": "baseline: L6 CC50 over IC50", "endpoint": "selectivity index", "value": 55.2}
{"Compound": "CC1=C(C)/C(=C/c2cc(-c3ccc(OC(F)(F)F)cc3)c(C)[nH]2)N=C1c1ccc[nH]1", "test": "parasite growth, SYBR Green fluorescence", "system": "Dd2 (multidrug-resistant), asexual blood stage", "setting": "72 h", "endpoint": "IC50", "value": "2370 nM"}
{"Compound": "Cc1cc(NCCc2ccccc2)nc(N=C(N)Nc2ccc(Cl)cc2)n1", "test": "parasite growth, inhibitor, SYBR Green I", "system": "3D7", "endpoint": "IC50", "value": "184 nM"}
{"Compound": "CCOC1=CC(c2ccc[nH]2)=N/C1=C\\c1cc(Cc2ccc(Cl)cc2)c(C)[nH]1", "test": "parasite growth, SYBR Green fluorescence", "system": "Dd2 (multidrug-resistant), asexual blood stage", "setting": "72 h", "endpoint": "IC50", "value": "4.12 nM"}
{"Compound": "CNS(=O)(=O)c1ccccc1Nc1nc(Nc2cc(OC)c(OC)cc2C)ncc1Br", "test": "LDH readout", "system": "3D7 Hyp1-Nluc", "setting": "2 µM, 72 h", "how to read": "baseline: DMSO", "endpoint": "parasite growth", "value": "12.1%"}
{"Compound": "COC1=CC(c2ccc[nH]2)=N/C1=C\\c1cc(Cc2ccc(OC(F)(F)F)cc2)c(C)[nH]1", "test": "parasite growth, SYBR Green fluorescence", "system": "Tm90-C2B (atovaquone-resistant), asexual blood stage", "setting": "72 h", "endpoint": "IC50", "value": "8.88 nM"}
{"Compound": "O=C(CC1NCCCC1O)Cn1cnc2cc(Br)c(Cl)cc2c1=O (centres unmarked)", "test": "parasite growth", "system": "cPRS conditional knockdown line", "setting": "72 h, added: 3 nM anhydrotetracycline", "endpoint": "IC50", "value": "0.04 nM"}
